Literature values, collected from citations in different studies.
Lines come from different studies, so protocols differ. ± marks the error that the study gave. Converted amounts (≈) assume the structure as drawn.

Compound | target or system | test | system | conditions | how to read | endpoint | value
CC1CCC(C(C)C)C(OC(=O)Cn2c(-c3ccc(F)cc3)[n+](C)c3ccccc32)C1.[Cl-] (stereo not shown) | Mycobacterium tuberculosis | – | – | >99% growth suppression | – | MIC | 32.7 µM
O=c1c(I)ccc2n1C[C@@H]1CNC[C@H]2C1 | α4β2 nAChR low-sensitivity form | agonist | Xenopus oocytes | – | – | EC50 | 86 nM
C[C@]12CCC(=O)CC1=CC[C@@H]1[C@@H]2CC[C@]2(C)C(=O)CC[C@@H]12 | ketosteroid isomerase Y55F | substrate | – | pH 7.0, 3.3 % methanol | – | kcat | 3510 ± 60 s⁻¹
c1ccc(-c2ccc(-c3nc4ccccc4[nH]3)cc2)cc1 | Trypanosoma cruzi | – | Tulahuen C4 LacZ | – | – | IC50 | > 32000 nM
O=C(O)CCCO | – | – | baboon | 100 mg/kg, first 2 h | baseline: vehicle | food-maintained behaviour | increased
CNC(C)C(=O)c1ccc2c(c1)OCO2 (stereo not shown) | dopamine transporter, rat | dopamine uptake, inhibitor | brain synaptosomes | – | – | IC50 | 1320 ± 133 nM
COc1cc2c(cc1C)CC(N)C2 (stereo not shown) | serotonin transporter | [3H]serotonin uptake | synaptosomes | – | – | IC50 | 212 nM
Cc1ccccc1OCc1n(CC(=O)OC2CC(C)CCC2C(C)C)c2ccccc2[n+]1C (stereo not shown) | Mycobacterium tuberculosis | – | – | >99% growth suppression | – | MIC | 10.4 µM
NC(=O)c1ncn([C@@H]2O[C@H](CO)[C@@H](O)[C@H]2O)n1 | human parainfluenza virus 2 | viral replication, MTT | Greer | – | – | EC50 | 8900 nM
NC(=O)[C@@H]1CC[C@@H]2CN1C(=O)N2OS(=O)(=O)O | PBP1a | enzyme activity | – | highest concentration 50 µM | – | IC50 | > 50000 nM
C[C@]12CC[C@H](O)CC1=CC[C@@H]1[C@@H]2CC[C@]2(C)C(=O)CC[C@@H]12 | MCF7 Tet-off 3β-HSD aromatase | cell proliferation, agonist | – | mean of cell lines | – | EC50 | 5 nM
CNC(C)C(=O)c1ccc(C)cc1 (stereo not shown) | norepinephrine transporter, rat | norepinephrine uptake, inhibitor | brain synaptosomes | – | – | IC50 | 487 ± 66 nM
C[C@H]1O[C@@H](O[C@H]2[C@@H](O)C[C@H](O[C@H]3[C@@H](O)C[C@H](O[C@H]4CC[C@@]5(C)[C@H](CC[C@@H]6[C@@H]5C[C@@H](O)[C@]5(C)[C@@H](C7=CC(=O)OC7)CC[C@]65O)C4)O[C@@H]3C)O[C@@H]2C)C[C@H](O)[C@@H]1O | MDA-MB-435 | cell viability | – | 72 h | – | IC50 | 170 ± 20 nM
COc1ccc2c(c1OC)N=C(NC(=O)c1cccnc1)N1CCN=C21 | PI4KIIIα | enzyme activity, inhibitor | – | together with: 10 µM ATP | – | IC50 | 830 nM
CCCC(C(=O)c1ccc2c(c1)OCO2)N1CCCC1 (stereo not shown) | dopamine transporter, rat | dopamine uptake, inhibitor | brain synaptosomes | – | – | IC50 | 4.1 ± 0.5 nM
CCC(CC)COC(=O)[C@H](C)N[P@](=O)(OC[C@H]1O[C@@](C#N)(c2ccc3c(N)ncnn23)[C@H](O)[C@@H]1O)Oc1ccccc1 | SARS-CoV-2 | viral replication | human airway epithelial cells | – | – | EC50 | 5.97 ng/mL
CO[C@@H]1[C@H](O)[C@@H](COP(=O)(O)OP(=O)([O-])OP(=O)(O)OP(=O)(O)OC[C@H]2O[C@@H](n3cnc4c(=O)[nH]c(N)nc43)[C@H](O)[C@@H]2O)O[C@H]1n1c[n+](C)c2c(O)nc(N)nc21 | – | – | rabbit reticulocyte lysate | mRNA capped with compound | baseline: m7GpppG-capped mRNA | relative translation efficiency | 2.56 ± 0.18
Nc1nc(-c2ccccc2)nc2c1ncn2C1OC(COS(=O)(=O)NC(=O)c2ccccc2O)C(O)C1O (stereo not shown) | Mycobacterium tuberculosis | – | H37Rv, iron-deficient GAS medium | pH 6.6 | – | MIC | 0.049 µM (≈ 0.0266 µg/mL)
CO[C@H]1C[C@H](O[C@H]2CC[C@@]3(C)[C@@H](C2)C[C@@H]2O[C@]24[C@@H]3[C@H](O)C(=O)[C@]2(C)[C@@H](C3=CC(=O)OC3)CC[C@]42O)O[C@@H](C)[C@@H]1O | MDA-MB-231 | cell viability | – | 72 h | – | IC50 | 500 ± 50 nM

Some of these lines once more:
Compound | target or system | test | system | conditions | how to read | endpoint | value
CCCC(C(=O)c1ccc2c(c1)OCO2)N1CCCC1 (stereo not shown) | dopamine transporter, rat | dopamine uptake, inhibitor | brain synaptosomes | – | – | IC50 | 4.1 ± 0.5 nM
CCC(CC)COC(=O)[C@H](C)N[P@](=O)(OC[C@H]1O[C@@](C#N)(c2ccc3c(N)ncnn23)[C@H](O)[C@@H]1O)Oc1ccccc1 | SARS-CoV-2 | viral replication | human airway epithelial cells | – | – | EC50 | 5.97 ng/mL
